Measured values of several laboratories.
A part holds a random share of what one study measured. “And” joins repeats or separate records; there may be more than shown.

Block 1 — cell line: mouse MPNST tumor cells; technique: high-content immunofluorescence imaging; measured: nuclear SOX9; concentration: 10 µM; time: 12 h; setting: mean of 2 replicates; reference: DMSO control; reading: higher = more nuclear SOX9
`CCN(CC)CCOC(=O)c1ccc(N)cc1` — result for “nuclear SOX9 intensity”: 94.3 % of DMSO.
For `N[C@@H](CC(=O)N1CCn2c(nnc2C(F)(F)F)C1)Cc1cc(F)c(F)cc1F`, “nuclear SOX9 intensity” read 91.9 % of DMSO and 117 % of DMSO.
`CCN(CC)CCOC(=O)C(c1ccccc1)c1ccccc1` — result for “nuclear SOX9 intensity”: 89.6 % of DMSO.
`CC(=O)[C@@]12O[C@](C)(c3ccccc3)O[C@@H]1C[C@H]1[C@@H]3CCC4=CC(=O)CC[C@]4(C)[C@H]3CC[C@@]12C`: “nuclear SOX9 intensity” 124 % of DMSO.

Block 2
Structure (SMILES): c1ccc(Oc2ccc(Nc3c4c(nc5ccccc35)CCC4)cc2)cc1
J774.1; resazurin; 0.32 µM — cytotoxicity: 5% and 0%.
For PMA-differentiated THP-1 macrophages; 4 µM, 64 h: cytotoxicity read -7% and 12%.
HepG2; resazurin; 0.166 µM, 48 h — cytotoxicity: 5%.

Block 3 — observed: binding; technique: radioligand binding; concentration: 10 µM
Target: Alpha-2A adrenergic receptor (ADRA2A, Homo sapiens, UniProt P08913)
UniProt P08913, sequence (whole entry, looked up): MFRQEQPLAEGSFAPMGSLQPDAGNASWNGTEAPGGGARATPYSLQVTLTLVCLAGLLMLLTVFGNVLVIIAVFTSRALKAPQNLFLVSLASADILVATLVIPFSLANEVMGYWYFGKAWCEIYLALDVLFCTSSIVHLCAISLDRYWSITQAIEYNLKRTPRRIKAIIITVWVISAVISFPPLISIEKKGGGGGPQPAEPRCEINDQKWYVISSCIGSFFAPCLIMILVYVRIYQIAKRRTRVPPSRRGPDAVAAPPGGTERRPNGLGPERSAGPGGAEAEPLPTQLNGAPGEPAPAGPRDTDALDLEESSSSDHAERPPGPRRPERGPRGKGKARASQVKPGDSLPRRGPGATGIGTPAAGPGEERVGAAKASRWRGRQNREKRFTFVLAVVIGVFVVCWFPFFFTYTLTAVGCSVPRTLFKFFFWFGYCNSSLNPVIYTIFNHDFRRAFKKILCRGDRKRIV
`O=C(Nc1cccnn1)N1CC(CC=Cc2cncc(Oc3ccc(C(F)(F)F)cn3)n2)C1` has an inhibition of 0.68%.
`CC(=O)Nc1nc(CN2CCC[C@H](Cc3cc(C)nc(C)c3)C2)cs1` gave an inhibition of 31.7%.
The inhibition of `CC(C)CC(=O)N1CCc2nc(-c3ccc(Br)cc3)nc(N(C)Cc3ccccc3)c2C1` is reported as 48.4%.
For `C[C@@H]1CN(c2cc(-c3nn(C)c4ccc(OC5(C)CC5)cc34)ncn2)C[C@H](C)O1`, the inhibition was 12.9%.
The inhibition of `Cc1nccc(COC(=O)N2C[C@@H]3[C@@H](CNC(=O)c4ccc5[nH]nnc5c4)[C@@H]3C2)n1` is reported as 2.2%.
With `CS(=O)(=O)NCC[C@H](NC(=O)c1cncc2c1cnn2-c1ccc(F)cc1)c1ccnc(S(C)(=O)=O)c1` the inhibition was 3.49%.
`COCc1nc2cnc3cc(-c4c(C)noc4C)c(OC[C@H]4CCNC4)cc3c2n1[C@H](C)c1ccccc1` gave an inhibition of 9.95%.
`C[C@@]1(Cc2ccc(C#N)cc2)C(=O)N(c2cc(Cl)cc(Cl)c2)c2ncc(C(=O)NC3(c4nc(C5CCC5)no4)CC3)n21` gave an inhibition of 12.1%.
`Cc1nc(C2CCN(C(=O)c3ccc(OC(F)(F)F)cc3N)CC2)c2ncc(N3CCN(C)CC3)cc2n1` gave an inhibition of -6.02%.
`Cc1c[nH]c2nccc(Oc3c(F)cc(Nc4cc(Cl)nc(N)n4)cc3F)c12` has an inhibition of -10.1%.
With `Cc1nc(N2CC[C@@H](O)C2)ncc1-c1cc(C(F)(F)F)cc2[nH]ncc12` the inhibition was 10.6%.
For `CN1CCN(C(=O)C(C)(C)c2ccc(C(=O)Nc3cn4cc(-c5ccncc5)ccc4n3)cc2)CC1`, the inhibition was 2.61%.
With `CNC(=O)c1ccc(Nc2ncc(C(F)(F)F)c(NCc3nccnc3N(C)S(C)(=O)=O)n2)cc1` the inhibition was 9.61%.
`CC(=O)Nc1c(F)cc(C(=O)N[C@H]2CC[C@H](O)CC2)cc1O[C@@H](C)c1ccccc1` gave an inhibition of -11.7%.
With `Cc1c(NC(=O)c2cc(C(N)=O)nc3cc(F)ccc23)c(C(F)(F)F)nn1Cc1ccc(C(C)(C)C)cc1` the inhibition was 23.1%.
For `CN1C(=O)[C@@H](N2CCc3cn(Cc4ccccc4)nc3C2=O)COc2ccccc21`, the inhibition was 19.1%.
`CCOC(=O)c1cc2cc(-c3cc(C(=O)NCc4ccc(C(=O)O)cc4)nn3C)ccc2[nH]1` gave an inhibition of 12.3%.
With `Nc1c(C(=O)NCc2ccc(C(=O)NCCCC3CCCCC3)cc2)cnn1-c1ccccc1` the inhibition was 4.08%.
For `COc1cccc(CNC(=O)c2nc3scc(COCc4ccc(C(=O)O)cc4)c3c(=O)[nH]2)c1`, the inhibition was 17.2%.
`CC(=O)c1c(NS(C)(=O)=O)c2cc(-c3ccc(Cl)cc3)c(-c3ccc(Cl)cc3Cl)nc2n(C)c1=O` has an inhibition of 19.8%.
`C[C@H](NC(=O)c1cnc2n1[C@](C)(Cc1ccc(C#N)cc1)C(=O)N2c1cc(Cl)c(F)c(Cl)c1)C(=O)NC1(c2ccccn2)CC1` has an inhibition of -16.7%.

Block 4 — technique: competition protein-binding microarray; molecule type: double-stranded DNA, one strand shown; medium: in vitro; concentration: 2 µM; added: Cbf1 competitor, 0.05 µM; reading: higher = stronger binding
Target: Phosphate system positive regulatory protein PHO4, full length, GST-tagged (PHO4, Saccharomyces cerevisiae, UniProt P07270, residues 1-312)
Setting: whole 60-bp probe, lowest competitor level
Residues (chain): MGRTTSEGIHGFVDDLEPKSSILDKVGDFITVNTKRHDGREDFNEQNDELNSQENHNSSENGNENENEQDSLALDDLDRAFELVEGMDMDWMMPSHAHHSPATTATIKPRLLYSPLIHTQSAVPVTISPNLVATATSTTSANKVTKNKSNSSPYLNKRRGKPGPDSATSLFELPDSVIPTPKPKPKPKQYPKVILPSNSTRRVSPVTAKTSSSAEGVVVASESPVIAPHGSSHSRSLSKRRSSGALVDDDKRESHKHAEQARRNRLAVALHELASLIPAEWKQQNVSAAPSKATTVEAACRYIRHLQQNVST
`CTTTCCCGATCTTGTGACGTGGGTGTAGCACATTTGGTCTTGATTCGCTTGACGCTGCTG` has a fluorescence intensity of 7050 a.u.
For `CTAGAAAAGAAACACCGCGTGGTGAATCTATGTCCAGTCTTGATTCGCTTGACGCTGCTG`, the fluorescence intensity was 11200 a.u.
The fluorescence intensity of `CCTTGGTTGACTGCAAACGTGTGGAAATACGGAAAGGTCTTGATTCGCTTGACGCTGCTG` is reported as 9960 a.u.
For `AATTGGTAAAACCATCACGTTTATGTTTTATTAAAAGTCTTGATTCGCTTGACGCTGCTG`, the fluorescence intensity was 12000 a.u.
`CATACCCAACCTTGATGAGTGGGTGAAGATATTTGTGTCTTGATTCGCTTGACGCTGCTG` gave a fluorescence intensity of 4250 a.u.
`AGATTGCTTTTCTCACGCCTGTTTTACGTCTCCAGGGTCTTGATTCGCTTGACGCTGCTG` has a fluorescence intensity of 3570 a.u.
`CGTCCTAGTGATTGCAGCGTGGGTGCCATGAGGAAGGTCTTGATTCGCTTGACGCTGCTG` gave a fluorescence intensity of 9890 a.u.
`CGCAGTGAACTTGGCCATGTGGGGCCATCCCAAGATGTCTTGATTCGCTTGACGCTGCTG` gave a fluorescence intensity of 10400 a.u.

Block 5 — technique: RNA Bind-n-Seq; molecule type: RNA; medium: in vitro; concentration: 200 nM; setting: whole 134-nt RNA, ends assumed; added: 150 mM LiCl; reference: input library; reading: higher = stronger binding; each molecule: 7-deaza-guanosine replaces G
Target: Ras GTPase-activating protein-binding protein 1, full length (G3BP1, Homo sapiens, UniProt Q13283)
UniProt Q13283, sequence (whole entry, looked up): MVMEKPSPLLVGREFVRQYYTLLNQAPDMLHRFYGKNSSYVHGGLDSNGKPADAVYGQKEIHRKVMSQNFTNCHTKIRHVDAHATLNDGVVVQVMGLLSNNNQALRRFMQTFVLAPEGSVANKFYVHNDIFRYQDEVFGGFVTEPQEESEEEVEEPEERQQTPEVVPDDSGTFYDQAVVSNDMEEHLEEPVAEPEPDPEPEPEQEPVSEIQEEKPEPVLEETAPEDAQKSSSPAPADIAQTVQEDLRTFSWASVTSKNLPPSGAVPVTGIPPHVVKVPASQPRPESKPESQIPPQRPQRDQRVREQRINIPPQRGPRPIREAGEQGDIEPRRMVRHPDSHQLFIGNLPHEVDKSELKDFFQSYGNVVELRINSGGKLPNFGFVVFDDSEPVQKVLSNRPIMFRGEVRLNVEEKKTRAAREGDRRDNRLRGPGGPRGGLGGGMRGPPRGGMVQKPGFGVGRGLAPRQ
With `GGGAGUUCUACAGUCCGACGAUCUAACUUUAGGGGAGGAUCUGAUGGAUAUGGCAGUGGACGUGGAUUUGGGGAUGGCUAUAAUGGGUAUGGAGGAGGACCUGGAGGUGGCAAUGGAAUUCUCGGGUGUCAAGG` the log2 enrichment was -0.153.
For `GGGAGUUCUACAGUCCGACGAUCGUCCUGUGCUACACAUCGUAUGUACCGAAUCGGGUGGGAAAAAAAGGGAAAAAAAGGGAAAGUAUUAUGUUACGCCGUUCGGAUCUGCACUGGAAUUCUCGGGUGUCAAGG`, the log2 enrichment was 0.21.
For `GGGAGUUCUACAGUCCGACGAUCGCAGGAAGUAAAAACAAAUGGAAAUGCUUCGGAUAGUGGCAGGGGUGGGGGUUGCUAAGGAAAAGGUGGGAUGGGAGUGGGUAAAGAGUUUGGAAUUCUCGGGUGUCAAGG`, the log2 enrichment was 0.0153.
With `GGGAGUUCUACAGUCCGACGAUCUUUUCUUCUGGGGCAUUUAUCCGUGCUGAUCUUGGUGAAUGGGGCAUGAGUCUAACGAUCAGAGCCCCUAGUGUAGAUUACAGAAACACUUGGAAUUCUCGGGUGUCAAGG` the log2 enrichment was -0.315.
With `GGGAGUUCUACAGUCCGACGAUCGCAGGAAGUAAAAACAAAUGGAAAUGCUUCGGAUAGUGGCAGGGGUGGGGGUUGCUAAGGAGAGGGUGGGAUGGGAGUGGGUAAAGAGUUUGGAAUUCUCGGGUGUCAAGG` the log2 enrichment was -0.000313.
With `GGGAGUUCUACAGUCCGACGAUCCUCAAGUCCUGUGCUACACAUCGUAUGUACCGAAUCGGAAAGGAAAGGUUUGGAAAGUAUUAUGUUACGCCGUUCGGAUCUGCACUUCCAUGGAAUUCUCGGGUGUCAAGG` the log2 enrichment was -0.297.
With `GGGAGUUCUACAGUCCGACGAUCUCAAGUCCUGUGCUACACAUCGUAUGUACCGAAUCGGAAAAAAAGGUGGUUUGGAAAGUAUUAUGUUACGCCGUUCGGAUCUGCACUUCCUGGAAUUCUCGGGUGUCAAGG` the log2 enrichment was -1.06.
For `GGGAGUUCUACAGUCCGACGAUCCCUGUGCUACACAUCGUAUGUACCGAAUCGGGGUUUUUUGGGUUUUUUGGGUUUUUUGGGAAAGUAUUAUGUUACGCCGUUCGGAUCUGCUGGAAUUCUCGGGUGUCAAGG`, the log2 enrichment was 0.0158.

Block 6 — host: human; medium: microsomes or S9; concentration: 2 µM; time: 0.5 h
`COC(=O)CCN(Cc1ccncc1)c1ncnc2c(F)cccc12` gave a remaining compound of 99.4%.
For `CCc1noc(CN(CC)C(=O)C2CNCCO2)n1` (stereo not drawn), the remaining compound was 85.4%.
The remaining compound of `COc1cc(Br)ccc1C1NCCc2c1[nH]c1ccccc21` (stereo not drawn) is reported as 49.7%.
`CC(C)CCn1c(N2CCNCC2)nc2c1c(O)nc(=O)n2C` gave a remaining compound of 92.4%.

For quick reference, copied from above (block 3):
`C[C@@]1(Cc2ccc(C#N)cc2)C(=O)N(c2cc(Cl)cc(Cl)c2)c2ncc(C(=O)NC3(c4nc(C5CCC5)no4)CC3)n21` gave an inhibition of 12.1%.
`O=C(Nc1cccnn1)N1CC(CC=Cc2cncc(Oc3ccc(C(F)(F)F)cn3)n2)C1` has an inhibition of 0.68%.
`CC(=O)c1c(NS(C)(=O)=O)c2cc(-c3ccc(Cl)cc3)c(-c3ccc(Cl)cc3Cl)nc2n(C)c1=O` has an inhibition of 19.8%.
With `CNC(=O)c1ccc(Nc2ncc(C(F)(F)F)c(NCc3nccnc3N(C)S(C)(=O)=O)n2)cc1` the inhibition was 9.61%.
With `CS(=O)(=O)NCC[C@H](NC(=O)c1cncc2c1cnn2-c1ccc(F)cc1)c1ccnc(S(C)(=O)=O)c1` the inhibition was 3.49%.
For `CN1CCN(C(=O)C(C)(C)c2ccc(C(=O)Nc3cn4cc(-c5ccncc5)ccc4n3)cc2)CC1`, the inhibition was 2.61%.
